# Results from different studies.
# Each numbered part is a random draw from the data of one study; scales do not carry over between parts.
# Chain of UniProt P49336 (whole entry, looked up): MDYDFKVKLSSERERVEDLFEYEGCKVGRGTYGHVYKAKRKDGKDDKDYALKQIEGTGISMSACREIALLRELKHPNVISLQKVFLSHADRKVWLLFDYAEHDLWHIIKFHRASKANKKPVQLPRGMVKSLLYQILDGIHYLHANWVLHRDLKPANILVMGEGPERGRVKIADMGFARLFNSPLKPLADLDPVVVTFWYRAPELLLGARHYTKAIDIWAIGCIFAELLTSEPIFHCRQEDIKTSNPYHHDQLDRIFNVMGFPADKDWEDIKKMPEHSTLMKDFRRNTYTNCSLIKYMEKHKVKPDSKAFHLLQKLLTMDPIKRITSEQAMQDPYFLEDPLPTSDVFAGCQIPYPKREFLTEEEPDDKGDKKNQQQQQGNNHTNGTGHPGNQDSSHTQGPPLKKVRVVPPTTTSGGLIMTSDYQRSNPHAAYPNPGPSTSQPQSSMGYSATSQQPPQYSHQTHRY
# Chain of UniProt Q9Y2U5 (whole entry, looked up): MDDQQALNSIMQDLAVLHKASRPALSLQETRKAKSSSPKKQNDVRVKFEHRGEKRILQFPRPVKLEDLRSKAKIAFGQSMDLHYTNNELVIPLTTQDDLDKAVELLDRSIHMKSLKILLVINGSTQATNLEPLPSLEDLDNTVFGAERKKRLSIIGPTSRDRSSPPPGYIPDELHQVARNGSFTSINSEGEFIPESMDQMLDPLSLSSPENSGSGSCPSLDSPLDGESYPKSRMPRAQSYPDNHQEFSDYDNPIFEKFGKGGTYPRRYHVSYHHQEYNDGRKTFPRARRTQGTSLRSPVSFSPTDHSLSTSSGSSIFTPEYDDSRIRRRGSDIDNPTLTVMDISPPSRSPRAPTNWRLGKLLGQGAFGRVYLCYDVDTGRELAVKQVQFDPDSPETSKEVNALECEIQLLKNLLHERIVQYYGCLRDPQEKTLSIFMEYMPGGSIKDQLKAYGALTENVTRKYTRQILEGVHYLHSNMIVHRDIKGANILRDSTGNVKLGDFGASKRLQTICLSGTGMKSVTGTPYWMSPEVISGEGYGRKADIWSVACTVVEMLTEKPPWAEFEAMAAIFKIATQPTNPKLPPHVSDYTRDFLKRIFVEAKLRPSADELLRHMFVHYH
# Chain of UniProt P54760 (whole entry, looked up): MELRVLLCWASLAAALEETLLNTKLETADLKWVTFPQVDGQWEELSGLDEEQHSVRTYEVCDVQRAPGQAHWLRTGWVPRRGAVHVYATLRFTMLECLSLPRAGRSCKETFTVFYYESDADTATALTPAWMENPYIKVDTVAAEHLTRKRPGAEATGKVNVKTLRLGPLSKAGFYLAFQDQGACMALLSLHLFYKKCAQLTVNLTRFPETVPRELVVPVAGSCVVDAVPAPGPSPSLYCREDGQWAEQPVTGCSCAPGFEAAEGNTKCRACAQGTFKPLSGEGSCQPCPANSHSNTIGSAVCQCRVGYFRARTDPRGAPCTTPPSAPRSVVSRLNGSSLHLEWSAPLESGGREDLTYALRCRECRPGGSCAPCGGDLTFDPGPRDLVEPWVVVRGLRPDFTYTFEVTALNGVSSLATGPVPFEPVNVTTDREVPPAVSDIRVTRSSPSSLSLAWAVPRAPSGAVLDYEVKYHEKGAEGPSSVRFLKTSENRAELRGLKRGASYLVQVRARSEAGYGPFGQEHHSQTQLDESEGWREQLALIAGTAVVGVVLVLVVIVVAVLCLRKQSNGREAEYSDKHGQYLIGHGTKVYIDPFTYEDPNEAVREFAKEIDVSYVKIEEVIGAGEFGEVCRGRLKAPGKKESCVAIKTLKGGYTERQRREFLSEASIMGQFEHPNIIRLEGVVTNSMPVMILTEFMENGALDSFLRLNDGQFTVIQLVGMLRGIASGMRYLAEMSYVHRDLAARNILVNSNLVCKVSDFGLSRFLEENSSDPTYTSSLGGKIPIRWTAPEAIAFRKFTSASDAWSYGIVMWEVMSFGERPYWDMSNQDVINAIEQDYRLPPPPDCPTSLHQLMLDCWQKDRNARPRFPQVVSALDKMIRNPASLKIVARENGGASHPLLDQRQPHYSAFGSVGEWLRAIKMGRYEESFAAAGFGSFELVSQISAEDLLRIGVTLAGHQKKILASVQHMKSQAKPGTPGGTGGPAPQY
# Chain of UniProt O14936 (whole entry, looked up): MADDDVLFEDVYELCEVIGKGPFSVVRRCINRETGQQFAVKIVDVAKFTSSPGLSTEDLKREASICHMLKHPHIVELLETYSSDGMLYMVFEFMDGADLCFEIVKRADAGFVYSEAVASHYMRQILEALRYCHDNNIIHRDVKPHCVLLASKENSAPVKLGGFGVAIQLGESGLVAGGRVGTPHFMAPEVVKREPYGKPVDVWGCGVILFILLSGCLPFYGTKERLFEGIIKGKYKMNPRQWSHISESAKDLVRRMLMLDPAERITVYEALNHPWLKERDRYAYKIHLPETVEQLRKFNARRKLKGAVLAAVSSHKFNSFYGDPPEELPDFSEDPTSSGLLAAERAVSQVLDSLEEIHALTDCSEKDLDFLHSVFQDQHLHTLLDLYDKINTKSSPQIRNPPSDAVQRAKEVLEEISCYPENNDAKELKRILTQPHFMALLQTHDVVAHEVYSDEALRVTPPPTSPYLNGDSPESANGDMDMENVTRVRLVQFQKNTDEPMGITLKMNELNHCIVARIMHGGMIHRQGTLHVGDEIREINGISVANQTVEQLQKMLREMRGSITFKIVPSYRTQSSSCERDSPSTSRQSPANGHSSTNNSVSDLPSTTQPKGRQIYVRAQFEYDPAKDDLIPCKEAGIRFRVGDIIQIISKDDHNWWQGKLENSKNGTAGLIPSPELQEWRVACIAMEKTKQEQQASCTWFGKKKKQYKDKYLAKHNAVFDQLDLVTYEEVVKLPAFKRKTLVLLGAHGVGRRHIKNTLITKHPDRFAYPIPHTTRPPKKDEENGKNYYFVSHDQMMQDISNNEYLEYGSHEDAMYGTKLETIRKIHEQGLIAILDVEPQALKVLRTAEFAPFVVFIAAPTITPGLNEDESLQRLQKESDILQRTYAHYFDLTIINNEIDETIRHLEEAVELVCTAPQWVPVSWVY
# Chain of UniProt P48736 (whole entry, looked up): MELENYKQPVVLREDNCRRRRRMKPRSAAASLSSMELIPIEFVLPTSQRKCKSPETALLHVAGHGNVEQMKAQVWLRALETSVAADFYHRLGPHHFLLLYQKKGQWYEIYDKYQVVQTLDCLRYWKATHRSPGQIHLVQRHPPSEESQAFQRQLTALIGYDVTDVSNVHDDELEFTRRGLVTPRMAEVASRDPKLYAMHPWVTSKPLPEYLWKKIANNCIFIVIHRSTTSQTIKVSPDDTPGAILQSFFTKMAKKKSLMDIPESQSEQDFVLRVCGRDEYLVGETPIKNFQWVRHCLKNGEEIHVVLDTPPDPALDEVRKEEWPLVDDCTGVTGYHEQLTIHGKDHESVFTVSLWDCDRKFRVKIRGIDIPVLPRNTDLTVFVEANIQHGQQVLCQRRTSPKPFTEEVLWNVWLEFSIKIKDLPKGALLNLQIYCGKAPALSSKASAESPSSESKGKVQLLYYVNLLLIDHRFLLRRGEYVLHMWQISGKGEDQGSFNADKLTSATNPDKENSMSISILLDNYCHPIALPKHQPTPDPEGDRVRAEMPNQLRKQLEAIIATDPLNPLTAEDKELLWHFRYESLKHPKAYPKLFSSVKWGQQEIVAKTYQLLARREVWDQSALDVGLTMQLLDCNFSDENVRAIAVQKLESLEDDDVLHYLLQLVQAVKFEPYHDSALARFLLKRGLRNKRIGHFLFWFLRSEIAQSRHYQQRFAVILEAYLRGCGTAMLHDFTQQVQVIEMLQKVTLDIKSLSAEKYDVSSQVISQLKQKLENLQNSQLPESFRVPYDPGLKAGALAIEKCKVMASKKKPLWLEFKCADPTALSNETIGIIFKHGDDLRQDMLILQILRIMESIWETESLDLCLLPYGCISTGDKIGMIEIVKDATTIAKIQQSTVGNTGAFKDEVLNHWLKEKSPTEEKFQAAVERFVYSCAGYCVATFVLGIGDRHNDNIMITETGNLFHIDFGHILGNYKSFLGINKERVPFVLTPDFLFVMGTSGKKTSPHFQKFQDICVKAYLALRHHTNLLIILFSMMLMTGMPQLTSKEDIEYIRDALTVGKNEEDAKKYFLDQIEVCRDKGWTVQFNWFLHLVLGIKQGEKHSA

# Sample 1 — species: human; matrix: microsomes or S9; concentration: 2 µM; time: 0.5 h
SMILES,remaining compound [%]
CC(C)COc1cc(=O)n2c(c1C(=O)NCC1CC1)CCCCC2,74.1
Cc1c(-c2cc(-c3cnn(C)c3C)n(Cc3ccc(Cl)c(Cl)c3)n2)cnn1C,7.26
CN1CCC(NS(=O)(=O)c2cc(Cl)ccc2Cl)CC1,75.6
Cc1ccccc1S(=O)(=O)Nc1cccc2[nH]ccc12,42.6
CCc1csc(CC(=O)N2CCCn3nccc32)n1,80.5
Fc1ccc(Oc2ccccc2CNc2nnco2)c(Cl)c1,96.2
CCNc1nc(NNC(=O)CNc2ccccc2)nc(NC(C)C)n1,76.3

# Sample 2 — observed: cell-free assay; method: competition with immobilised ligand; concentration: 1 µM
# Compound: COc1cccc(CNC(=O)c2nc3scc(COCc4ccc(C(=O)O)cc4)c3c(=O)[nH]2)c1
target,remaining binding
"MAP3K2 (Homo sapiens, UniProt Q9Y2U5)",65.5%
"PIK3CG (Homo sapiens, UniProt P48736)",76.8%
"EPHB4 (Homo sapiens, UniProt P54760)",89.4%
"CDK8 (Homo sapiens, UniProt P49336)",73.4%
"CASK (Homo sapiens, UniProt O14936)",67.3%

# Sample 3 — cell line: A-375; concentration: 100 µM; time: 18 h
SMILES,viability [%]
O=C(O)CCCc1ccccc1,106
CNC(=O)c1c(C)oc2cc(Oc3ncnc4cc(OC)c(OC)cc34)ccc12,101
CNC(=O)c1ccccc1Sc1ccc2c(/C=C/c3ccccn3)n[nH]c2c1,81.3
O=C(O)c1cc(/N=N/c2ccc(S(=O)(=O)Nc3ccccn3)cc2)ccc1O,93.2
COc1ccc2[nH]cc(CCNC(C)=O)c2c1,107

# Sample 4 — observed: enzyme activity; action: inhibitor; concentration: 0.5 µM; relative to: control
# Target: Serine/threonine-protein kinase pim-2 (PIM2, Homo sapiens, UniProt Q9P1W9)
# Chain of UniProt Q9P1W9 (whole entry, looked up): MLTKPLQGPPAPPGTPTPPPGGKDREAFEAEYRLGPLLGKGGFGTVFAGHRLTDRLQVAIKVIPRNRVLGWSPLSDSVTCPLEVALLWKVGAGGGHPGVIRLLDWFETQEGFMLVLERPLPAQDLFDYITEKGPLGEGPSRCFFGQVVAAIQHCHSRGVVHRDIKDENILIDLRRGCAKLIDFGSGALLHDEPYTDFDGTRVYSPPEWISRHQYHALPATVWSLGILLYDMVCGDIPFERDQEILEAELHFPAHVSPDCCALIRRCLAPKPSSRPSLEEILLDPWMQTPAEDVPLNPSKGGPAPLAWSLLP
Structure (SMILES),remaining activity [%]
Oc1ccc(-c2nc(-c3ccncc3)c(-c3ccc(F)cc3)[nH]2)cc1,106
COc1ccc(C(=O)Nc2sc3c(c2C(N)=O)CCCC3)cc1OC,98.5
O=C1NC(=O)C(c2cn(CCCn3ccnc3)c3ccccc23)=C1Nc1ccccc1,102
O=C1NC(=O)C(c2cn(CCCO)c3ncccc23)=C1c1cnccn1,92.7
COc1cc2nccc(Oc3ccc(NC(=S)NC(=O)c4ccccc4C)cc3)c2cc1OC,117
NCCNc1ncc(C(N)=O)c(Nc2cccc(C(F)(F)F)c2)n1,98.4
COc1cc2ncnc(Nc3ccc(F)c(Cl)c3)c2cc1OCCCN1CCOCC1,96.2
O=C(CCCc1ccc(-c2ccccc2F)cc1)Nc1ccc(O)cc1,115
O=C(Nc1cccc(Nc2cc(Nc3cccc(C(F)(F)F)c3)ncn2)c1)C1CC1,104
COc1cc2ncnc(Nc3ccc(Oc4ccccc4)cc3)c2cc1OC,107
O=c1c2ccccc2[nH]c(=S)n1CCN1CCC(=C(c2ccc(F)cc2)c2ccc(F)cc2)CC1,128
CO[C@H]1C[C@@H]2CC[C@@H](C)[C@@](O)(O2)C(=O)C(=O)N2CCCC[C@H]2C(=O)O[C@H]([C@H](C)C[C@@H]2CC[C@@H](O)[C@H](OC)C2)CC(=O)[C@H](C)/C=C(\C)[C@@H](O)[C@@H](OC)C(=O)[C@H](C)C[C@H](C)/C=C/C=C/C=C/1C,102
CNC(=O)c1cc(Oc2ccc(NC(=O)Nc3ccc(Cl)c(C(F)(F)F)c3)cc2)ccn1,103
N#CC(C#N)=C(N)/C(C#N)=C/c1ccc(O)cc1,88.2
Cc1cccc(-c2[nH]c(C(C)(C)C)nc2-c2ccc3c(c2)OCO3)n1,99.7

# For quick reference, copied from above (sample 4):
Structure (SMILES),remaining activity [%]
O=C(CCCc1ccc(-c2ccccc2F)cc1)Nc1ccc(O)cc1,115
O=C(Nc1cccc(Nc2cc(Nc3cccc(C(F)(F)F)c3)ncn2)c1)C1CC1,104
COc1cc2ncnc(Nc3ccc(Oc4ccccc4)cc3)c2cc1OC,107
